Results from different studies.
Lines come from different studies, so protocols differ. Several values in a cell are separate wells, animals, samples, runs or records. ± marks the error that the study gave. Values after ≈ are worked out from the molar mass of the structure shown.

The uptake of CN(Cc1ccccc1)C(=O)CN1CCN(CC(=O)[O-])CCN(Cc2cccc(C(=O)[O-])n2)CC1.[18F-].[Sc+3] is reported as 220 ± 56.4 %ID/g (BALB/c mouse, urine; intravenous, 1 h).
N#C[C@@H]1CC(F)(F)CN1C(=O)CNC(=O)c1ccnc2c(NC(=O)[C@H](CCCCNC(=O)CCOCCOCCOCCOCCOCCOCCNC(=O)CN3CCN(CC(=O)[O-])CCN(CC(=O)[O-])CCN(CC(=O)[O-])CC3)NC(=O)CCCc3ccc(I)cc3)cccc12.[177Lu+3] has a tissue uptake of 7.78 ± 0.57 %ID/g (mouse, U-87 MG tumour xenograft, salivary gland; 1 h).
OC1(C(F)(F)F)CCN(c2nc(Nc3ccnc(C(F)(F)F)c3)nc(-c3cccc(C(F)(F)F)n3)n2)C1 (centres unmarked) gave an AUC(0-t) of 1.15 ± 0.2 µg·h/mL (Sprague-Dawley rat, both sexes, plasma; intravenous, 1 mg/kg).
With CN(Cc1ccccc1)C(=O)CN1CCN(CC(=O)[O-])CCN(CC(=O)[O-])CC1.[44Sc+3] the tracer uptake was 1.12 %ID/g (mouse, heart; intravenous, 1 h).
For Cc1ncc2c(n1)CN(C(=O)Nc1nc(-c3cccs3)ccc1N)C2, “unbound brain Cmax” read 86 ng/mL (C57BL/6 mice, brain; oral, 10 mg/kg).
For COc1cccc(OC)c1-c1cc(C(=O)NC2(C(=O)O)C3CC4CC(C3)CC2C4)nn1-c1ccc(C(=O)NCCNC(=O)[C@H](CCCCNC(=O)[C@H](CC(C)C)NC(=O)C2OC2C(=O)O)NC(=O)CN2CCN(CC(=O)[O-])CCN(CC(=O)[O-])CCN(CC(=O)[O-])CC2)cc1C(C)C.[177Lu+3] (mixture of isomers), the renal retention was 10.7 ± 1.6% (HT-29 xenograft mouse, kidney; 168 h; baseline: initial uptake).
The uptake of CN(Cc1ccccc1)C(=O)CN1CCN(CC(=O)N(C)Cc2ccccc2)CCN(Cc2cccc(C(=O)[O-])n2)CC1.[44Sc+3] is reported as 561 ± 317 %ID/g (BALB/c mouse, urine; intravenous, 1 h).
With Cc1ncsc1-c1ccc(CNC(=O)[C@@H]2C[C@@H](O)CN2C(=O)[C@@H](NC(=O)COCC(C)(COCCOCCOCCNC(=O)C[C@@H]2N=C(c3ccc(Cl)cc3)c3c(sc(C)c3C)-n3c(C)nnc32)COCCOCCOCCNC(=O)C[C@@H]2N=C(c3ccc(Cl)cc3)c3c(sc(C)c3C)-n3c(C)nnc32)C(C)(C)C)cc1 the concentration was 34900 ng/mL (male C57BL/6 mouse, plasma; intravenous, 5 mg/kg, 4.98 min, single dose).
For NC(=O)[C@H](CCC(=O)O)NC(=O)[C@H](CCC(=O)O)NC(=O)[C@H](Cc1ccc(O)cc1)NC(=O)[C@H](Cc1ccccc1)NC(=O)[C@H](Cc1ccccc1)NC(=O)OCC1c2ccccc2-c2ccccc21, “random coil content” read 52% (CD spectroscopy; peptide nanofibres).
CN([O-])C(=O)CN1CCN(CC(=O)N(C)[O-])CCN(CC(=O)N(C)[O-])CC1.[89Zr+4] has an intact complex of 98.5% (radio-TLC; human serum; 3 days, run 1).
CCCCN1C(=O)c2cccc3c(NCCN4CCOCC4)ccc(c23)C1=O — result for “fluorescence quantum yield”: 0.09 (ethyl acetate).
The uptake of CN(Cc1ccccc1)C(=O)CN1CCN(CC(=O)[O-])CCN(CC(=O)N(C)Cc2ccccc2)CC1.[44Sc+3] is reported as 153 ± 104 %ID/g (BALB/c mouse, urine; intravenous, 1 h).
For C=C[C@]1(C)C[C@@H](OC(=O)CSc2ccc(NC(=O)c3ccco3)cc2)[C@]2(C)[C@H](C)CC[C@]3(CCC(=O)[C@H]32)[C@@H](C)[C@@H]1O, the plasma concentration was 5440 ng/mL and 4920 ng/mL and 5400 ng/mL and 3100 ng/mL and 5560 ng/mL and 2760 ng/mL and 3150 ng/mL (Mycoplasma gallisepticum-infected chickens, plasma; intramuscular, 40 mg/kg, 1 h).
With O=C(CCCCCCCCCCCCCCCCC(=O)Oc1c2n(cc(C(=O)NCc3c(F)cc(F)cc3F)c1=O)CC1OC3CCC(C3)N1C2=O)Oc1c2n(cc(C(=O)NCc3c(F)cc(F)cc3F)c1=O)CC1OC3CCC(C3)N1C2=O (centres unmarked) the prodrug hydrolysed was 45% (monkey plasma; 1 µM, 24 h, 1% methanol).
With CN(O)C(=O)CCC(=O)NCCCN(CCCCN(CCCNC(=O)CCC(=O)N(C)O)C(=O)CCC(=O)N(C)O)C(=O)CCC(=O)N(C)O.[89Zr] the intact complex was 74.5 ± 0.3% (radio-TLC; aqueous buffer; 1 d, pH 7.2, 37 °C, 89Zr-labelled complex, with: FeCl3 100-fold excess).
For COc1ccc2c(c1)C(C)(C)C(/C=C/C1=C(Oc3ccc(C(=O)NCCCCOc4cc(CN(Cc5ccccn5)Cc5ccccn5)cc(CN(Cc5ccccn5)Cc5ccccn5)c4)cc3)C(=C/C=C3/N(CCCCS(=O)(=O)[O-])c4ccc(OC)cc4C3(C)C)CCC1)=[N+]2CCCCS(=O)(=O)[O-].O=[N+]([O-])[O-].O=[N+]([O-])[O-].[99Tc+].[C-]#[O+].[C-]#[O+].[C-]#[O+].[Zn+2], the tracer uptake was 1.76 %ID/g (mouse, kidney; 12 h).
For C=C(NC(=O)c1csc(-c2nc3c(cc2O)-c2nc(cs2)C(=O)NC(C(C)O)C(=O)NC(=C(C)OC)c2nc(cs2)C(=O)NC2c4nc(cs4)C(=O)NC(COC(=O)c4c5c6c(cccc6n4O)COC(=O)C(OC4CC(C)(O)C(N(C)C)C(C)O4)C2OC5)c2nc-3cs2)n1)C(N)=O (centres unmarked), the Cmax was 1590 ng/mL (ICR mice, Streptococcus pneumoniae ATCC 49169 infected, immunocompromised, blood; intravenous, 32 mg/kg/day twice daily).
With CC(C)(O)c1ccc(N2Cc3c(ccnc3-c3ccc(F)cc3OCC(F)(F)F)C2=O)cc1 the concentration was 229 ng/g (male C57BL/6 mouse, brain; oral, 3 mg/kg, 6 h).
COc1cccc(OC)c1-c1cc(C(=O)NC2(C(=O)O)C3CC4CC(C3)CC2C4)nn1-c1ccc(C(=O)N(C)CCOCCOCCN(C)C(=O)[C@H](CCCCNC(=O)[C@H](CC(C)C)NC(=O)C2OC2C(=O)O)NC(=O)CN2CCN(CC(=O)[O-])CCN(CC(=O)[O-])CCN(CC(=O)[O-])CC2)cc1C(C)C.[177Lu+3] (mixture of isomers) has a tumour-to-muscle ratio of 11.1 (mouse, HT-29 xenograft; 4 h post injection, biodistribution; baseline: tumour over muscle uptake).
For N#C[C@@H]1CC(F)(F)CN1C(=O)CNC(=O)c1ccnc2ccc(OCCCN3CCN(C(=O)CCc4ccc5c(c4)CN4CCN(Cc6cc(CCC(=O)O)ccc6O)CC(=O)[O][Al-]([18F])([O]C(=O)C4)[O]5)CC3)cc12 (some centres unmarked), the radiochemical purity was 94.2 ± 2.2% (radio-TLC; CD-1 mice, plasma; intravenous, 10 min post-injection).
Cc1cc(C)n(CCN(CCN)CCCCCCNC(=O)[C@@H](N)Cc2c[nH]cn2)n1.[99Tc+].[C-]#[O+].[C-]#[O+].[C-]#[O+] gave a tissue uptake of 0.15 ± 0.03 %IA/g (BALB/c nude mice, MCF7 xenograft, bone; intravenous, 4 h).
O=c1c2ccccc2[se]n1CCCCCCn1[se]c2ccccc2c1=O gave a solubility of 6 ± 1 µg/mL (≈ 12.5 µM) (shake-flask, RP-HPLC; 10% PEG6000 solution; 24 h, 25 °C).
CC[C@H](C)[C@@H]1NC(=O)[C@H](Cc2ccc(O)cc2)NC(=O)CCCSC[C@@H](C(=O)N(CC(=O)N[C@@H](CC(C)C)C(=O)NCC(N)=O)Cc2ccc(F)cc2)NC(=O)[C@H](CC(N)=O)NC(=O)[C@H](CCC(N)=O)NC1=O gave a drug-related headache of 33% (human; intranasal, 400 µg single dose).
With C/C(N)=N/C(=N\S(=O)(=O)c1ccc(C(F)(F)F)cc1)N1C[C@H](c2ccccc2)C(c2ccc(Cl)cc2)=N1 the t1/2 was 3.3 h (C57BL/6 mouse male, adipose tissue; intravenous, 10 mg/kg).
O=C([O-])CN1CCN(CC(=O)[O-])CCN(Cc2cccc(C(=O)[O-])n2)CC1.[44Sc+3] has a tracer uptake of 0.75 %ID/g (mouse, liver; intravenous, 1 h).
The AUC(0-inf) observed of Cc1nn(-c2nc3c(F)cc(F)cc3s2)c(O)c1C(c1ccc(C(F)(F)F)cc1)c1c(C)nn(-c2nc3c(F)cc(F)cc3s2)c1O is reported as 384 µg·h/mL and 354 µg·h/mL and 386 µg·h/mL (ICR mouse, plasma; oral, 50 mg/kg).
With C=CC(=O)Nc1cc(Nc2nccc(-c3c[nH]c4ccccc34)n2)c(OC)cc1N(C)CCN(C)C the recovery was 93.6% (storage stability; human plasma; 10 d, -80 °C, MQC level).
CCC(C(=O)Nc1ccc(C(N)=O)c(F)c1)n1cc(OC)c(-c2cc(Cl)ccc2-n2cc(C(F)(F)F)nn2)cc1=O (centres unmarked): “procedure-related adverse events” 0% (healthy male humans; 50 mg, required by protocol).
For CC[C@H](C)[C@@H](C(=O)N[C@@H](CC(C)C)C(=O)N[C@@H](CO)C(=O)N[C@@H](CO)C(=O)N[C@H](C(=O)N[C@@H](CCC(=O)O)C(=O)N[C@H](C(=O)NCC(=O)N[C@@H](CO)C(=O)N[C@@H](CC(N)=O)C(=O)N[C@H](C(=O)N1C[C@H](O)C[C@H]1C(N)=O)[C@@H](C)O)C(C)C)[C@@H](C)O)N(C)C(=O)[C@H](C)NC(=O)CN(C)C(=O)[C@H](Cc1ccccc1)NC(=O)[C@H](CO)NC(=O)[C@H](CO)NC(=O)[C@H](CCCNC(=N)N)NC(=O)[C@H](CCC(N)=O)NC(=O)[C@H](CC(C)C)NC(=O)[C@H](Cc1ccccc1)NC(=O)[C@H](Cc1c[nH]cn1)NC(=O)[C@H](C)NC(=O)[C@H](CC(C)C)NC(=O)[C@H](CCCNC(=N)N)NC(=O)[C@H](CCC(=O)O)NC(=O)[C@@H](NC(=O)[C@H](C)NC(=O)[C@@H]1CCCNC(=O)C[C@H](NC(=O)[C@H](CCCNC(=N)N)NC(=O)CC[C@H](NC(=O)CCCCCCCCCCCCCCCCCCC(=O)O)C(=O)O)C(=O)NCC(=O)N[C@@H]([C@@H](C)O)C(=O)N[C@@H](C)C(=O)N[C@@H]([C@@H](C)O)C(=O)N1)[C@@H](C)O, “main peak area remaining” read 98% (RP-HPLC; water; 1.0 mg/mL, 7 days, pH 6.0, 40 °C).
With O=C(Nc1cnccc1-c1ccc([18F])nc1)c1ccnc(NC(=O)C2CC2)c1 the SUV was 0.374 (ex vivo gamma counting; FVB/NJ mice, both sexes, stomach; intravenous, 120 min, mean, P-gp inhibitor pretreatment, with: tariquidar 15 mg/kg iv).
For CCn1cc(-c2cc(Cn3ccnc3)cc3c2CCN([C@H](c2cc(OC)ccn2)C2CC2)C3=O)c(C(F)(F)F)n1, the MRT(0-inf) was 1.4 h (male CD-1 mouse, plasma; oral, 10 mg/kg).
CC(C)c1cnc(-c2cc(Cl)ccc2F)cc1Nc1ccncc1C(=O)NC(CO)CO has an unbound Cmax of 14.1 nM (female C57BL/6 mice, plasma; oral, 10 mg/kg twice daily, day 1, MC-38 tumour-bearing).
For CN1CCC[C@]1(C)/C=C/S(=O)(=O)NC(=O)Nc1c2c(cc3c1CCC3)CCC2, “subjects with adverse event” read 0% (refers to: Headache, possibly related; human; oral, 12.5 mg twice daily, 14 days, multiple ascending dose).
C[C@]12C[C@H](c3ccc(S(C)(=O)=O)cc3)C3=C4CCC(=O)C=C4CC[C@H]3[C@@H]1CC[C@@]2(O)C(F)(F)C(F)(F)F gave an AUC(0-24 h) of 0.413 µg·h/mL (human, plasma; oral, 5 mg multiple doses, day 28).
COCC1CN(C2CCN(c3cc(OC)c(Nc4ncc(Br)c(Nc5ccc6c(c5P(C)(C)=O)OCCO6)n4)cc3C)CC2)C1 gave an adverse events of 0% (first-in-human trial; human; oral, 30 mg once daily; treatment-related leading to permanent discontinuation).
O=C(Nc1cnccc1-c1ccc([18F])cc1)c1ccnc(NC(=O)C2CC2)c1 gave an SUV of 0.05 (ex vivo gamma counting; GSK-3β transgenic mice, early-stage, cerebellum; intravenous, 120 min, mean, no P-gp inhibitor).
CCCC[C@H](OC(C)=O)c1ccccc1C(=O)O has an AUC(0-t) of 1.01 ± 0.323 µg·h/mL (Sprague-Dawley rats, both sexes, whole blood; intravenous, 1.25 mg/kg single dose).
The intact complex of CN([O-])C(=O)CN1CCN(CC(=O)N(C)[O-])CCN(Cc2ccccn2)CC1.[89Zr+4] is reported as 100% (radio-TLC; human serum; 2 days, run 2).

A few entries again:
CC[C@H](C)[C@@H]1NC(=O)[C@H](Cc2ccc(O)cc2)NC(=O)CCCSC[C@@H](C(=O)N(CC(=O)N[C@@H](CC(C)C)C(=O)NCC(N)=O)Cc2ccc(F)cc2)NC(=O)[C@H](CC(N)=O)NC(=O)[C@H](CCC(N)=O)NC1=O gave a drug-related headache of 33% (human; intranasal, 400 µg single dose).
With C/C(N)=N/C(=N\S(=O)(=O)c1ccc(C(F)(F)F)cc1)N1C[C@H](c2ccccc2)C(c2ccc(Cl)cc2)=N1 the t1/2 was 3.3 h (C57BL/6 mouse male, adipose tissue; intravenous, 10 mg/kg).
O=C([O-])CN1CCN(CC(=O)[O-])CCN(Cc2cccc(C(=O)[O-])n2)CC1.[44Sc+3] has a tracer uptake of 0.75 %ID/g (mouse, liver; intravenous, 1 h).
The AUC(0-inf) observed of Cc1nn(-c2nc3c(F)cc(F)cc3s2)c(O)c1C(c1ccc(C(F)(F)F)cc1)c1c(C)nn(-c2nc3c(F)cc(F)cc3s2)c1O is reported as 384 µg·h/mL and 354 µg·h/mL and 386 µg·h/mL (ICR mouse, plasma; oral, 50 mg/kg).
With C=CC(=O)Nc1cc(Nc2nccc(-c3c[nH]c4ccccc34)n2)c(OC)cc1N(C)CCN(C)C the recovery was 93.6% (storage stability; human plasma; 10 d, -80 °C, MQC level).
